Assay results pooled from the literature.
A part holds a random share of what one study measured.

Sample 1 — method: universal PBM; molecule type: double-stranded DNA, one strand shown; sample: in vitro; tested at: 600 nM; direction: higher = stronger binding
Target: Sal-like protein 4, full length isoform A (SALL4, Homo sapiens, UniProt Q9UJQ4, residues 1-1053)
UniProt Q9UJQ4, sequence (whole entry, looked up): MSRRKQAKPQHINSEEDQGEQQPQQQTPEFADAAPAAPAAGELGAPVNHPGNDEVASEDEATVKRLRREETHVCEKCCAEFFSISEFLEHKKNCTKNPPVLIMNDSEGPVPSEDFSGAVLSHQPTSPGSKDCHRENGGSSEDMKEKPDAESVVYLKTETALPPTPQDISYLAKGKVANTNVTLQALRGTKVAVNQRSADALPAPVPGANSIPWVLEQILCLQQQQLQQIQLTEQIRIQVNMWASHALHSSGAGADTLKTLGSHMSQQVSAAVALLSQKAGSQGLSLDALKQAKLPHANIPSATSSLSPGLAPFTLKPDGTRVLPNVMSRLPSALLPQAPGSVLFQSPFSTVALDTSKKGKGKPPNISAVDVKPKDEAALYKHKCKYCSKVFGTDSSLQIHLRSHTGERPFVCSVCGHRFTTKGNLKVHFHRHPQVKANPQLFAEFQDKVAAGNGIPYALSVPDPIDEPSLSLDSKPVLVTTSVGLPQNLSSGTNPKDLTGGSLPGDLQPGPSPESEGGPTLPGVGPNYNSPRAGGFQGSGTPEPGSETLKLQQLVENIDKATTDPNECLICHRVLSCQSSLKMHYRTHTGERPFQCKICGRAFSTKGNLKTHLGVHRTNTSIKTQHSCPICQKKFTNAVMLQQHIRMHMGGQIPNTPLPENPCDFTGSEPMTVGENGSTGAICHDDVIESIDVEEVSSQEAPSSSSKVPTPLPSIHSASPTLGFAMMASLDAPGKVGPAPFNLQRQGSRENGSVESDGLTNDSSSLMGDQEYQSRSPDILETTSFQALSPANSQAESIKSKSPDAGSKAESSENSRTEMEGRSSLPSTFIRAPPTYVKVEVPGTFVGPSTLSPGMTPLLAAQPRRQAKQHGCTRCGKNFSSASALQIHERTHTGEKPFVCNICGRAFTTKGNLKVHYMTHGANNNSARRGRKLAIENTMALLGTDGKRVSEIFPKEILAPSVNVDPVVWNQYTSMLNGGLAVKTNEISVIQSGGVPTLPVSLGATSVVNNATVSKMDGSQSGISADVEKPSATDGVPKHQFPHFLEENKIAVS
Setting: 8-mer, flanks averaged, mean of replicates
Strand | E-score
GCTTTATA | 0.157
ATGCCTTC | -0.105
CTGTACCC | -0.29
GCAATCCC | -0.237

Sample 2 — method: protein binding microarray; molecule type: double-stranded DNA, one strand shown; sample: in vitro; tested at: not given; baseline: not given; direction: higher = stronger binding
Target: Histone acetyltransferase KAT6A, both winged helices, GST fusion (KAT6A, Homo sapiens, UniProt Q92794, residues 1-181)
Setting: 8-mer, flanks averaged, mean of 2 arrays, mostly near background
Construct (chain): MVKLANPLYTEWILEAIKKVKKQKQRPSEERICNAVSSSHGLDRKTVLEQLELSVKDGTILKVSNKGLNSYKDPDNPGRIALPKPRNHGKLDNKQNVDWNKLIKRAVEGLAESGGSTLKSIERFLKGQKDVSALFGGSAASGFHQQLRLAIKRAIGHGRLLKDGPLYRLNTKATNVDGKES
Strand | E-score
CCATTCAG | -0.129
ACTTGCAC | -0.159
ATGGTGTC | -0.148

Sample 3 — method: competition protein-binding microarray; molecule type: double-stranded DNA, one strand shown; sample: in vitro; tested at: 2 µM; together with: Cbf1 competitor, 0.05 µM; direction: higher = stronger binding
Target: Phosphate system positive regulatory protein PHO4, full length, GST-tagged (PHO4, Saccharomyces cerevisiae, UniProt P07270, residues 1-312)
Setting: whole 60-bp probe, lowest competitor level
Target sequence (chain): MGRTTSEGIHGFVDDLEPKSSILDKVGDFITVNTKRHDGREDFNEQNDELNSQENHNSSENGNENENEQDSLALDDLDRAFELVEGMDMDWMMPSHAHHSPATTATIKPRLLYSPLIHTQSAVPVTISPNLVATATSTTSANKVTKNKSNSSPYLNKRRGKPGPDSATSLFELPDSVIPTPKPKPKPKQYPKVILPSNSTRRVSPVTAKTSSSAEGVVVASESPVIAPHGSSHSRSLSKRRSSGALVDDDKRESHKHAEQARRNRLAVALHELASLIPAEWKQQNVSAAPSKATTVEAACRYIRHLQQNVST
Strand | fluorescence intensity
GGGTAAGGTCTTTTTCGCGTGCTTTTATTTTATTCAGTCTTGATTCGCTTGACGCTGCTG | 7700 a.u.
CTAACGAAGGTTTTTCACGTGGGTTACAAGCCAAGTGTCTTGATTCGCTTGACGCTGCTG | 13600 a.u.
CGGGGTTAAGTTTGTCACATTACTTGCTTGCAGCAGGTCTTGATTCGCTTGACGCTGCTG | 3810 a.u.

Other studies, line by line
Substance | target | assay | test system | setting | how to read | quantity | value
PhoQ, residues 284 288 289 292 302 303 SACGEM | PhoP, residues 12 14 15 18 19 VHSCL (Escherichia coli, UniProt P23836) | Sort-seq, item: YFP reporter | E. coli | PhoQ-PhoP variant library, together with: 10 µM Mg2+ | baseline: high Mg2+ state, higher = stronger signaling | fold induction | 2.58

Repeated from above (sample 1):
Strand | E-score
CTGTACCC | -0.29
